Measured values gathered from unrelated publications.
A part holds a random share of what one study measured. “And” joins repeats or separate records; there may be more than shown.
Chain of UniProt P19784 (whole entry, looked up): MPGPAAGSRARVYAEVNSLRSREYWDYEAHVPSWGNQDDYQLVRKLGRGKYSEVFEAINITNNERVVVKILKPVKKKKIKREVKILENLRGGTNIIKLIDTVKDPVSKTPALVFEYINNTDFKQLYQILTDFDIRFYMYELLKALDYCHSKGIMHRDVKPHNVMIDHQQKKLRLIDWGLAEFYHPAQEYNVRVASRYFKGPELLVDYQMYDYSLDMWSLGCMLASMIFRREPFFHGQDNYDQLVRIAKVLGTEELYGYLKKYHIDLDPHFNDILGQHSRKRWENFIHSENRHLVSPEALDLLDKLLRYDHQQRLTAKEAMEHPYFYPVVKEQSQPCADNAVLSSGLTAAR
Chain of UniProt Q15418 (whole entry, looked up): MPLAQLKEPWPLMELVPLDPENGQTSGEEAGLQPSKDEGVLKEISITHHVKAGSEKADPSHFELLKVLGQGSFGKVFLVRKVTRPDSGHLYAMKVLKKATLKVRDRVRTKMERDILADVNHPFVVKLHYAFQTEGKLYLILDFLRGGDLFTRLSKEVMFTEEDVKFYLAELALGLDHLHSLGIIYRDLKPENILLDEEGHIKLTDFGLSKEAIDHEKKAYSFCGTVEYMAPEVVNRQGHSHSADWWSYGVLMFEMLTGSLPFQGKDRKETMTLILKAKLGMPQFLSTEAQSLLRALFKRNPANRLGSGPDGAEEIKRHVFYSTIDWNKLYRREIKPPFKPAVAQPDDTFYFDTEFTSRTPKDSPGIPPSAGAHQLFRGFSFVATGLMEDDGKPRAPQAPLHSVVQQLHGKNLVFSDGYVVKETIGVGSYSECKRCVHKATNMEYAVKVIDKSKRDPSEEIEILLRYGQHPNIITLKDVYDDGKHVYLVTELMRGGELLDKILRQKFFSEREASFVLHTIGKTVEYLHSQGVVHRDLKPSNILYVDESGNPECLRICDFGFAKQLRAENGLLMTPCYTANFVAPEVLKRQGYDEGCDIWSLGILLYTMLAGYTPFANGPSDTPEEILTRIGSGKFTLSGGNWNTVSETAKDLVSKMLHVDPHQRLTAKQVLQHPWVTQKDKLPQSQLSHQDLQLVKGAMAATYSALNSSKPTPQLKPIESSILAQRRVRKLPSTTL
Chain of UniProt O43293 (whole entry, looked up): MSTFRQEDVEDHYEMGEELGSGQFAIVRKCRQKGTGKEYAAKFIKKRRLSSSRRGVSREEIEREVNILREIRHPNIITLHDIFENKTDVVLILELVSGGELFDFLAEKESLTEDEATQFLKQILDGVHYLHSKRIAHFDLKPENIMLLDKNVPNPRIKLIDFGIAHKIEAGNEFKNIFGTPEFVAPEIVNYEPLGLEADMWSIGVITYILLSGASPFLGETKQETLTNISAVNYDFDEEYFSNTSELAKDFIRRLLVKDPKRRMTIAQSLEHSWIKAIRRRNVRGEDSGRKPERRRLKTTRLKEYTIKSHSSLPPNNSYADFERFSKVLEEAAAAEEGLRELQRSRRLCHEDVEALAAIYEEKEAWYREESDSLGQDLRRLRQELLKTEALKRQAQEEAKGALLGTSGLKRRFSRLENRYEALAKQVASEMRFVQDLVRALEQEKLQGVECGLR
Chain of UniProt Q9H4B4 (whole entry, looked up): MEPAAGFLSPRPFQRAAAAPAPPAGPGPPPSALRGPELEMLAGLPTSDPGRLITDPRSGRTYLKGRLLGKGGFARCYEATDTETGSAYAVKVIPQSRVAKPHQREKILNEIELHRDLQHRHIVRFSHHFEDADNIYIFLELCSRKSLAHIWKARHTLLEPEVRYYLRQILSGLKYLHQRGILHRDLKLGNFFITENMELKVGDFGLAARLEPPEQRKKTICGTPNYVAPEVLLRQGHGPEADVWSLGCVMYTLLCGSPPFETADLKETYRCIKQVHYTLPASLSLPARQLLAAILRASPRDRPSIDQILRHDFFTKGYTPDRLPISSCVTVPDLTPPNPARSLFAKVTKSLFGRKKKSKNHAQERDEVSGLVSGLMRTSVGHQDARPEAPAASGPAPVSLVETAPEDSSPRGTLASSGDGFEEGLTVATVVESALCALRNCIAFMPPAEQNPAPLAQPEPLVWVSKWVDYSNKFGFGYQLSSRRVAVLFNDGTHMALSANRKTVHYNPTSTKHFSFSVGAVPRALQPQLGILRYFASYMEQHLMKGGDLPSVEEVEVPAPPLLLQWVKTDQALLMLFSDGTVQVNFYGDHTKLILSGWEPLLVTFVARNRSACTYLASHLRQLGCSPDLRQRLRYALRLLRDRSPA
Chain of UniProt P10721 (whole entry, unmodified, looked up): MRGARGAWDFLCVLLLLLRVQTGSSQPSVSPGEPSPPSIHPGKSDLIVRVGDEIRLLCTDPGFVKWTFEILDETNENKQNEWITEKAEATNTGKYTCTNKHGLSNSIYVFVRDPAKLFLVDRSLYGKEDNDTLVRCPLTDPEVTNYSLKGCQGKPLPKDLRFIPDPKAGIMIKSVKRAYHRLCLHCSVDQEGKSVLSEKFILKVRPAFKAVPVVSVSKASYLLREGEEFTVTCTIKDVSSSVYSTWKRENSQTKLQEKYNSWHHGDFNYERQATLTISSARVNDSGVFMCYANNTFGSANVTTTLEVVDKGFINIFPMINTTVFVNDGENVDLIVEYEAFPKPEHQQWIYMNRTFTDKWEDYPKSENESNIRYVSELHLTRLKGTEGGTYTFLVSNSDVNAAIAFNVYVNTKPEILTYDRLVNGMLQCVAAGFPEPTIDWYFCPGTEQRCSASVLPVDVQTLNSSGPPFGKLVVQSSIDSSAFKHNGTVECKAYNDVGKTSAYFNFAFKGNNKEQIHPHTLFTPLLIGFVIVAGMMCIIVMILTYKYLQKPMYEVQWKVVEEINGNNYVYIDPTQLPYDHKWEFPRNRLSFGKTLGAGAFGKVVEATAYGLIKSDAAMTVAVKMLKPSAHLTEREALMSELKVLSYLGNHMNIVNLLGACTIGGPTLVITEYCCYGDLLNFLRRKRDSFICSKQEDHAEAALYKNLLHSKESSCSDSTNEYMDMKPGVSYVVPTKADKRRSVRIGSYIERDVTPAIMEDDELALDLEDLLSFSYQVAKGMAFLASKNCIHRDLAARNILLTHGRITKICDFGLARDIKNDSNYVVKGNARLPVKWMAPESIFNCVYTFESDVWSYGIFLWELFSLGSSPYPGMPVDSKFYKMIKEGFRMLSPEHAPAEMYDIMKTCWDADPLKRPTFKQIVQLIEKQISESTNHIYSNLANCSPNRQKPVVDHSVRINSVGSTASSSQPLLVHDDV
Chain of UniProt Q7KZI7 (whole entry, looked up): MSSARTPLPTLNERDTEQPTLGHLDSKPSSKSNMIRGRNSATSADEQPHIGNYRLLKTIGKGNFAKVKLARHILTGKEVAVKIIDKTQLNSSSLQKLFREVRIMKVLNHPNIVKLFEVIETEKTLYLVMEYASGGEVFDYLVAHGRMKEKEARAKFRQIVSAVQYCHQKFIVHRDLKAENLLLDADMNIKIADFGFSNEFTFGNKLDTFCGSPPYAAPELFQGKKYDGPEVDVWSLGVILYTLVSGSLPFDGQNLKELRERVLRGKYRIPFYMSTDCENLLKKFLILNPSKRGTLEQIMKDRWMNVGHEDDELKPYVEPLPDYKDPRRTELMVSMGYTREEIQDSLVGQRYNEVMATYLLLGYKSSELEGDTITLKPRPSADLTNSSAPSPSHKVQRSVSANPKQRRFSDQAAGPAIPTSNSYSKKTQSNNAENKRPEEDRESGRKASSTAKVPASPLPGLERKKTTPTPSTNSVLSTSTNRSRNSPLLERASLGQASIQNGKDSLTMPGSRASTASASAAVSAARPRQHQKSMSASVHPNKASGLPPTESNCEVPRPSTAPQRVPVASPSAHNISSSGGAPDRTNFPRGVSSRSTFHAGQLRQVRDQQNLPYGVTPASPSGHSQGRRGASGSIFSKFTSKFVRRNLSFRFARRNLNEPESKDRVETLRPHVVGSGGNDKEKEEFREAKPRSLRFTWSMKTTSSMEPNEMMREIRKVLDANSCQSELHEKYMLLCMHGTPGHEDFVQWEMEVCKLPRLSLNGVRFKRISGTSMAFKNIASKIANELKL
Chain of UniProt Q9HBY8 (whole entry, looked up): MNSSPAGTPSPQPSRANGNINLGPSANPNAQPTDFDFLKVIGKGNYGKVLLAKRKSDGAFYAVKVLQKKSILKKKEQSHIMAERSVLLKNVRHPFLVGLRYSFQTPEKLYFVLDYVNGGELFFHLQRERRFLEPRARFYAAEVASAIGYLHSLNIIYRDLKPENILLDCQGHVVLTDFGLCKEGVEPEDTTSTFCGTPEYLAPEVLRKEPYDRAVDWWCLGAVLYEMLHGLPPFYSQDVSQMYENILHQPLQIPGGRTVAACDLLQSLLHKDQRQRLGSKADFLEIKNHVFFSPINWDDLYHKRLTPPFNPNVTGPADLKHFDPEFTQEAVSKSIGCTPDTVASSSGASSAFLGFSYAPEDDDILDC
Chain of UniProt P51617 (whole entry, looked up): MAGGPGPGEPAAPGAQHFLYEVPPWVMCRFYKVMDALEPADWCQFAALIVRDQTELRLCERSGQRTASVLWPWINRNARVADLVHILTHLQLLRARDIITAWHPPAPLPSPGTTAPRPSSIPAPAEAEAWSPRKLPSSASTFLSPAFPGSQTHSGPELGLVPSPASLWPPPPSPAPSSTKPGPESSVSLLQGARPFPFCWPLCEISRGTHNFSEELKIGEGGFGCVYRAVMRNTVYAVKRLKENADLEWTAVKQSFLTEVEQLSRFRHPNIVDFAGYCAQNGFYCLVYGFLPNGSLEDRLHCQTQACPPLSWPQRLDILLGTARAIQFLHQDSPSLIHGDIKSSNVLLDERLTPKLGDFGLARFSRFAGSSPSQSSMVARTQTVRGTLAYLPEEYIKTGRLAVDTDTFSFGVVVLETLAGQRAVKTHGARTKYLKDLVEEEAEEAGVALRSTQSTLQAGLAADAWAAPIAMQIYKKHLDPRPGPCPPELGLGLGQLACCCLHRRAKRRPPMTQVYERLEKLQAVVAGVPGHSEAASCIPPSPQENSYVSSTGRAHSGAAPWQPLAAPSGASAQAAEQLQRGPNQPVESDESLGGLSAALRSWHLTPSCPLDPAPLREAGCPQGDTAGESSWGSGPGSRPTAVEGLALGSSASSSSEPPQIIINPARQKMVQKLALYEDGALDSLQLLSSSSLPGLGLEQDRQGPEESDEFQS

Block 1
Compound: CC(C)(C(=O)O)[C@H](NC(=O)Cc1cccc(I)c1)c1ccc2oc(=O)[nH]c2c1
Technique: Incucyte 3D growth
Tested at: 30 µM
Reading: higher = more growth
Quantity: spheroid area
KP-4; 246 h: 2.36e+07 a.u. and 6.03e+07 a.u. and 5.26e+07 a.u. and 8.34e+07 a.u. and 4.45e+07 a.u. and 5.76e+07 a.u.
NCI-H358; 96 h: 4.01e+06 a.u. and 3.18e+06 a.u. and 4.2e+06 a.u.
A375; 72.52 h: 2.96e+07 a.u. and 3.61e+07 a.u. and 3.87e+07 a.u. and 4.22e+07 a.u. and 5.18e+07 a.u. and 4.42e+07 a.u.
A375; 216.52 h: 1.7e+08 a.u. and 1.51e+08 a.u. and 1.43e+08 a.u. and 1.57e+08 a.u. and 1.77e+08 a.u. and 1.61e+08 a.u.
NCI-H1437; 222 h: 5.75e+07 a.u. and 4.76e+07 a.u. and 8.21e+07 a.u. and 9.18e+07 a.u. and 9.85e+07 a.u. and 3.73e+07 a.u.
PC-9; 96 h: 6.88e+08 a.u. and 7.15e+08 a.u. and 7.07e+08 a.u. and 7.16e+08 a.u. and 7.12e+08 a.u. and 7.09e+08 a.u.

Block 2
Cell line: A-375
Tested at: 100 µM
Time: 18 h
Quantity: viability
CCN1CCCC1CNC(=O)c1cc(S(N)(=O)=O)ccc1OC (stereo not drawn): 99.9%
CCCCOc1ccc(CC(=O)NO)cc1: 98%
COc1ccnc(C[S+]([O-])c2nc3ccc(OC(F)F)cc3[nH]2)c1OC (stereo not drawn): 81.9%
C[C@H](CCC(=O)O)[C@H]1CC[C@H]2[C@@H]3CC[C@@H]4C[C@H](O)CC[C@]4(C)[C@H]3C[C@H](O)[C@]12C: 96.9%
Cc1nnc(C(C)C)n1[C@@H]1C[C@H]2CC[C@@H](C1)N2CC[C@H](NC(=O)C1CCC(F)(F)CC1)c1ccccc1: 105%
CN(C)CCOC(c1ccc(Cl)cc1)c1ccccn1 (stereo not drawn): 102%
CCCCCCCCCC[C@H](C(=O)O)[C@]1(C(=O)O)CCC(=O)O1: 94.4%

Block 3
SMILES: O=C(O)[C@H]1[C@H](Cn2nnc3ccccc3c2=O)CC[C@@H]1C(=O)c1ccc(OCCC2CCOCC2)cc1
Observed: cell-free assay
Technique: competition with immobilised ligand
Tested at: 1 µM
Quantity: remaining binding
IRAK1 (Homo sapiens, UniProt P51617): 70%
DAPK3 (Homo sapiens, UniProt O43293): 99%
SGK2 (Homo sapiens, UniProt Q9HBY8): 92%
MARK2 (Homo sapiens, UniProt Q7KZI7): 100%
NIM1K (Homo sapiens, UniProt Q8IY84): 93%
KIT (Homo sapiens, UniProt P10721, V559D): 100%
PLK3 (Homo sapiens, UniProt Q9H4B4): 100%
PIKFYVE (Homo sapiens, UniProt Q9Y2I7): 72%
MAP3K20 (Homo sapiens, UniProt Q9NYL2): 100%
MYLK2 (Homo sapiens, UniProt Q9H1R3): 83%
PIK3CA (Homo sapiens, UniProt P42336, M1043I): 100%
CSNK2A2 (Homo sapiens, UniProt P19784): 79%
NUAK1 (Homo sapiens, UniProt O60285): 71%
Ribosomal protein S6 kinase alpha-1, C-terminal kinase domain (RPS6KA1, Homo sapiens, UniProt Q15418): 95%
STK32B (Homo sapiens, UniProt Q9NY57): 100%

Block 4
Species: human
Matrix: microsomes or S9
Tested at: 2 µM
Time: 0.5 h
Quantity: remaining compound
O=C(CN1C(=O)CC2(CCCC2)C1=O)Nc1cccc(-c2nc[nH]n2)c1: 61.8%
COc1ccc(OCc2nc3c4c(-c5ccccc5)c(-c5ccccc5)n(CCO)c4ncn3n2)cc1: 1.12%
CCCC(=O)Nn1c(=S)[nH]c2cc(C)[nH]c2c1=O: 97.6%
O=C(Cn1ncccc1=O)N1Cc2cnc(N3CCOCC3)nc2C1: > 99%
COc1ccc(-n2c(C)c(C)c3nc(OC)ccc32)cc1: 21.4%

Some of these lines once more (block 1):
NCI-H358; 96 h: 4.01e+06 a.u. and 3.18e+06 a.u. and 4.2e+06 a.u.
PC-9; 96 h: 6.88e+08 a.u. and 7.15e+08 a.u. and 7.07e+08 a.u. and 7.16e+08 a.u. and 7.12e+08 a.u. and 7.09e+08 a.u.
